Measurements gathered from unrelated publications.
Lines come from different studies, so protocols differ. ± gives the spread as reported.

C[C@@H](NC(=O)N1C(=O)[C@H](Cc2ccnc(N)c2)[C@H]1C(=O)O)C1CCCCC1 — incidence of serious AEs (healthy adult Chinese volunteers; continuous intravenous infusion, 0.6 mg/kg/h, 5-day infusion, CTCAE 5.0 grading): 0%
C[C@]1(CO)Cc2ncn(-c3ccc(C#N)c(Cl)c3)c2C(=O)O1 — Cmax (healthy Japanese adults, plasma; 40 mg once daily, after first dose, multiple dose): 2830 nM
Clc1ccc(Cl)c(-c2cc(Cl)ccc2Cl)c1 — organ weight (Sprague Dawley rat, thymus; intraperitoneal, 1 mg/kg): 0.48 g
O=C(c1ccc(F)c(F)c1Nc1ccc(I)cc1F)N1CC(O)([C@@H]2CCCCN2)C1 — AE causing treatment withdrawal (human patients; oral, dose not given, dose escalation, tablet): 6%
COc1cc2c(Oc3ccc4[nH]c(C)cc4c3F)ccnc2cc1OCC1(N)CC1 — grade 1-2 QTc prolongation (paediatric refractory sarcoma patients; 12 mg): 9.1%
O.O.O.O.O.O.[Cl-].[Cl-].[Co+2] — urinary cobalt creatinine-corrected (rat male, urine; oral, 10 mg/kg single, day 3): 0.0266 µg/µmol creatinine
CC(C)(C)c1cc(-n2nc3ccccc3n2)c(O)c(C(C)(C)C)c1 — mean daily dermal uptake (exposure assessment; human, age 11-16 years; sunscreen): 1.34 ng/kg body weight/day
COc1ccc(-c2c(-c3ccc(C#N)c(F)c3)nc(N3CCC(N)CC3)n(C)c2=O)cc1F — treatment-related adverse event incidence (measured: Nausea; human patients; oral, dose not given, grade 3 to 4, dose escalation, NG): 0%
CO[C@H]1C[C@@H]2CC[C@@H](C)[C@@](O)(O2)C(=O)C(=O)N2CCCC[C@H]2C(=O)O[C@H]([C@H](C)C[C@@H]2CC[C@@H](OC(=O)NCCOCCOCCOCCOCCOCCOCCOCCOCCC(=O)N3CCc4cc(Cn5nc(-c6ccc7oc(N)nc7c6)c6c(N)ncnc65)ccc4C3)[C@H](OC)C2)C[C@@H](O)[C@H](C)/C=C(\C)[C@@H](O)[C@@H](OC)C(=O)[C@H](C)C[C@H](C)/C=C/C=C/C=C/1C — dose-reducing adverse events (phase 1 dose escalation, measured: fatigue; advanced solid tumour patients; intravenous, 16 mg weekly, grade ≥3): 0%
CCc1ccc(CC/C=C/c2ccc3c(c2)C(=O)CC3)cc1 — Reticulocyte percentage (Sprague-Dawley rat, female; oral, 120 mg/kg/day, 14 days): 2.19%
CCC[C@@](N)(CO)CCc1ccc(OCCCCCC(C)C)cc1 — AUC(0-inf) (dog, male hounds, plasma; oral capsule, 2.5 mg/kg, geometric mean): 3.22 µM·h
O=C(Nc1ccccc1)C1CCN(C(=O)Oc2cccnc2)CC1 — subjects with Haematoma adverse event (adverse event reporting; healthy women; oral, 100 mg): 7.7%
O=c1ccc2ncc(=O)n3c2n1C[C@H]3CN1CCC(NCc2cc3c(cn2)OCCC3)CC1 — amount excreted in urine (Ae) (healthy human participants, urine; oral, dose not given, arithmetic mean, added: rifampicin): 161 mg
CC(C)CC(=O)OC[C@H]1O[C@@](C#N)(c2ccc3c(N)ncnn23)[C@H](O)[C@@H]1O — remaining compound (human whole blood; 5 µM, 30 min): 4.99 ± 0.393%

Excerpt of the above:
CCc1ccc(CC/C=C/c2ccc3c(c2)C(=O)CC3)cc1 — Reticulocyte percentage (Sprague-Dawley rat, female; oral, 120 mg/kg/day, 14 days): 2.19%
CCC[C@@](N)(CO)CCc1ccc(OCCCCCC(C)C)cc1 — AUC(0-inf) (dog, male hounds, plasma; oral capsule, 2.5 mg/kg, geometric mean): 3.22 µM·h
